Assay results pooled from the literature.
Several values in a cell are separate wells, animals, samples, runs or records.
HIPK1: Homeodomain-interacting protein kinase 1 (HIPK1, Homo sapiens, UniProt Q86Z02)

Structure (SMILES) = O=C=[N][Ru-4]123([n]4c5ccc(O)cc5c5c6c(c7cc(F)c[n+]1c7c54)C(=O)NC6=O)[S+]1CC[S+]2CC[S+]3CC1 (centres unmarked); tested on = HIPK1; test = enzyme activity; conditions = 100 nM, human enzyme, together with: 10 µM ATP; how to read = reference: untreated; endpoint = remaining activity; result = 85%
Structure (SMILES) = COc1cc(Nc2nc(C)cc(-c3cnn4nc(OC)ccc34)n2)cc(C(F)(F)F)c1; tested on = HIPK1; test = binding, competition with immobilised ligand; conditions = 1 µM; endpoint = remaining binding; result = 70%
Structure (SMILES) = CN1CCN(Cc2ccc(-c3ccc(CO[C@H]4CCC[C@@H]4NC(=O)c4cc(-c5cnn(C)c5)cnc4N)cc3)cc2)CC1; tested on = HIPK1; test = enzyme activity, inhibitor; conditions = 0.1 µM; endpoint = inhibition; result = 2%
Structure (SMILES) = COCC12C(=O)NC3C4(C(OC)CC1O)C1CC5(O)C(OC)C(O)C(OC(C)=O)(C1C5OC(=O)c1ccccc1)C3(O)C(OC)C24 (centres unmarked); tested on = HIPK1; test = kinase activity, inhibitor, ProQinase kinase profiling; conditions = 25 µM; how to read = reference: control; endpoint = remaining activity; result = 80% and 100%
Structure (SMILES) = CNC(=O)C[C@H](Cc1ccc(C#N)cc1)NC(=O)c1cc(-c2ccc(CN[C@H](C)c3ccc(C)cc3)o2)ccc1Cl; tested on = HIPK1; test = enzyme activity, inhibitor; conditions = 1 µM; endpoint = activity vs control; result = 107%
Structure (SMILES) = COc1ccc(NC(=O)Nc2ccc3c(c2)C(=O)N(C(C)CO)CC(C)C(CN(C)Cc2ccc4c(c2)OCO4)O3)cc1 (centres unmarked); tested on = HIPK1; test = kinase activity, KinaseProfiler; conditions = 0.03 µM, species human; how to read = reference: control; endpoint = remaining activity; result = 95%
Structure (SMILES) = O=C(NCc1cn(-c2ccccc2)nc1-c1ccccc1)c1cc([N+](=O)[O-])cc([N+](=O)[O-])c1; tested on = Trypanosoma cruzi; test = reporter mRNA translation, inhibitor, item: capped polyadenylated Renilla luciferase mRNA; test system = cell-free extract; conditions = concentration not given; how to read = reference: control RNA; endpoint = relative translation; result = 92.9%
Structure (SMILES) = CNC(=O)C1CCN(c2cc(C)c(F)cc2NC(=O)c2ccc(-c3cc(O)ccc3C)c(C)c2)CC1; tested on = HIPK1; test = binding, competition with immobilised ligand; conditions = 1 µM; endpoint = remaining binding; result = 100%
Structure (SMILES) = COC(=O)c1c(NC(=O)Cn2cnc([N+](=O)[O-])n2)sc2c1CCC(C)C2 (centres unmarked); tested on = Trypanosoma cruzi; test = reporter mRNA translation, inhibitor, item: capped polyadenylated Renilla luciferase mRNA; test system = cell-free extract; conditions = concentration not given; how to read = reference: control RNA; endpoint = relative translation; result = 110%
Structure (SMILES) = Cc1cccc(O[C@H]2CCC[C@@H](C(C)CNCc3ccncc3)C2)c1 (relative stereo); tested on = HIPK1; test = enzyme activity, inhibitor; conditions = 1 µM; endpoint = inhibition; result = -1%
Structure (SMILES) = NC(=O)[C@@H](O)C[C@H]1CCc2sc3ncnc(O[C@H]4CC[C@H](N5CCOCC5)CC4)c3c21; tested on = HIPK1; test = enzyme activity, inhibitor; conditions = 10 µM; endpoint = inhibition; result = -1%
Structure (SMILES) = COc1c(OCCCN2CCOCC2)ccc2c1N=C(NC(=O)c1cnc(N)nc1)N1CCN=C21; tested on = HIPK1; test = kinase activity, inhibitor; conditions = 1 µM; how to read = reference: untreated control; endpoint = remaining activity; result = 98%
Structure (SMILES) = C=CC(=O)Nc1cccc(-c2cnc3[nH]cc(C(=O)NC(C)(C)C)c3n2)c1; tested on = HIPK1; test = enzyme activity, inhibitor; conditions = 0.1 µM; endpoint = inhibition; result = 45%
Structure (SMILES) = O=C(Cc1ccc(OCc2ccccc2)cc1)NC1(C(=O)O)CCN(C(=O)c2ccc(-c3cccc(Cl)c3)cc2)CC1; tested on = HIPK1; test = enzyme activity, inhibitor; conditions = 10 µM; endpoint = activity vs control; result = 92%
Structure (SMILES) = Nc1ncc(-c2cc(-c3cnn(CC(F)(F)F)c3)ncc2F)nc1C(=O)NC1CNCC(F)C1 (centres unmarked); tested on = HIPK1; test = enzyme activity; conditions = 1 µM; how to read = reference: DMSO control; endpoint = remaining activity; result = 106%
Structure (SMILES) = COc1ccc(O)cc1-c1c[nH]c2ncc(-c3cncc(C(=O)N(C)C)c3)cc12; tested on = HIPK1; test = binding, competition with immobilised ligand; conditions = 0.2 µM; endpoint = inhibition; result = -4.5%
Structure (SMILES) = COc1c(Cl)cccc1Nc1c(-c2ccncc2C#C[C@@]2(C)CCCN2C(=O)/C=C/CN(C)C)[nH]c2c1C(=O)NCC2; tested on = HIPK1; test = binding, competition with immobilised ligand; conditions = 3 µM; endpoint = remaining binding; result = 97%

A few entries again:
Structure (SMILES) = COc1c(OCCCN2CCOCC2)ccc2c1N=C(NC(=O)c1cnc(N)nc1)N1CCN=C21; tested on = HIPK1; test = kinase activity, inhibitor; conditions = 1 µM; how to read = reference: untreated control; endpoint = remaining activity; result = 98%
Structure (SMILES) = C=CC(=O)Nc1cccc(-c2cnc3[nH]cc(C(=O)NC(C)(C)C)c3n2)c1; tested on = HIPK1; test = enzyme activity, inhibitor; conditions = 0.1 µM; endpoint = inhibition; result = 45%
